Measured values from different studies.
Protocols differ between the studies behind these lines. “And” joins repeats or separate records; there may be more than shown.
Organism: Schistosoma mansoni

Under “phenotypic severity score”, `CN1CCN(c2ccc(-c3ccc4c(Nc5ncccn5)cnnc4c3)cc2)CC1` is recorded as 0 (adult worms; 10 µM, 48 h; direction not given).
`CC1=C(Cn2cc(COC3COC3)nn2)C(=O)c2ccccc2C1=O` has a killing of 52.9% (adult worms; 25 µM, 72 h).
For `Cc1ccc(Nc2cnnc3ccc(-c4ccc(N5CCCN(C)CC5)cc4)cc23)cn1`, “phenotypic severity score” read 0 (adult worms; 10 µM, 1 h; direction not given).
For `CC1(C(F)(F)F)NC(=O)N(c2ccc(F)c(C(F)(F)F)c2)C1=O` (stereo not drawn), “worm burden reduction” read 100% (NMRI mice, infected; oral, 100 mg/kg single dose, 21 days post-treatment, treated day 49 post-infection).
With `CC(C)(C)CNc1nc(-c2cccs2)nc(Cl)c1-c1c(F)cc(C#N)cc1F` the EC50 was under 300 nM (worm motility; adult worms ex vivo; 24 h).
For `CC1=C(Cn2cncn2)C(=O)c2ccccc2C1=O`, the killing was 54.6% (adult worms; 25 µM, 72 h).
`CC1(C)NC(=O)N(c2ccc(F)c(S(C)(=O)=O)c2)C1=O`: “worm burden reduction” 0% (NMRI mice, infected; oral, 100 mg/kg single dose, 21 days post-treatment, treated day 49 post-infection).
Under “phenotypic severity score”, `COc1ccc(Nc2cnnc3ccc(-c4cnc(N5CCCN(C)CC5)nc4)cc23)cc1` is recorded as 0 (adult worms; 10 µM, 1 h; direction not given).
Under “worm burden reduction”, `O=C(C1CCCCC1)N1CC(=O)N2CCc3ccccc3C2C1` (racemic) is recorded as 68% (infected mice; intraperitoneal, 50 mg/kg 1 times daily for 3 days, 72 h).
`CC1=C(Cc2cn(CC#N)nn2)C(=O)c2ccccc2C1=O` gave a killing of 45.4% (adult worms; 10 µM, 72 h).
For `CC1(C)NC(=O)N(c2ccc(F)c(C(C)(F)F)c2)C1=O`, “worm burden reduction” read 98% (adult, infected NMRI mice; oral, 100 mg/kg single dose).
`CC1=C(Cn2cc([Si](C)(C)C)nn2)C(=O)c2ccccc2C1=O` has a killing of 50.9% (adult worms; 25 µM, 24 h).
`CNCCCOc1cc(F)c(-c2c(Cl)nc(-c3cccs3)nc2N[C@H](C)C(C)C)c(F)c1` has an EC50 of over 5000 nM (worm motility; adult worms ex vivo; 24 h).
For `CC1(C)NC(=O)N(c2ccc3c(c2)OC(F)(F)O3)C1=O`, “worm burden reduction” read 10% (NMRI mice, infected; oral, 100 mg/kg single dose, 21 days post-treatment, treated day 49 post-infection).
`O=C(C1CCOCC1)N1CC(=O)N2CCc3ccccc3[C@@H]2C1` has an EC50 of 1550 nM (adult worms; 4 h).
`Cc1cc(N2C(=O)NC(C)(C)C2=O)cc(C(F)(F)F)n1`: “worm burden reduction” 21% (NMRI mice, infected; oral, 100 mg/kg single dose, 21 days post-treatment, treated day 49 post-infection).
For `CS(=O)(=O)CCNc1nc(-c2cccs2)nc(Cl)c1-c1c(F)cc(F)cc1F`, the EC50 was 610 nM (worm motility; adult worms ex vivo; 24 h).
For `COc1ccc(Nc2cnnc3cc(-c4cnc(N5CCCN(C)CC5)nc4)ccc23)cc1`, “phenotypic severity score” read 4 (adult worms; 10 µM, 48 h; direction not given).
For `CC(C)(C)CNc1nc(-c2cccs2)nc(Cl)c1-c1c(F)cc(F)cc1F`, the EC50 was under 300 nM (worm motility; adult worms ex vivo; 24 h).
With `CC1=C(Cc2cn(CCN3CCC(=O)CC3)nn2)C(=O)c2ccccc2C1=O` the killing was 55.5% (adult worms; 25 µM, 72 h).
`COc1ccc(Nc2cnnc3cc(-c4cnc(N5CCN(C)CC5)nc4)ccc23)cc1Cl`: “phenotypic severity score” 1 (adult worms; 10 µM, 5 h; direction not given).
`CC1=C(Cc2cn(CCN3CCOCC3)nn2)C(=O)c2ccccc2C1=O` has a killing of 40.3% (adult worms; 25 µM, 24 h).
`O=C(C1CCCCC1)N1CC(=O)N2CCc3ccccc3C2C1` (stereo not drawn): “worm burden reduction” 83% (NSG mouse; oral, 400 mg/kg single dose).
`CC(C)(C)CNc1nc(-c2cccs2)nc(Cl)c1-c1c(F)cc(N)cc1F` has an EC50 of under 300 nM (worm motility; adult worms ex vivo; 24 h).
For `CN1CCN(c2ccc(-c3ccc4c(Nc5cnccn5)cnnc4c3)cc2)CC1`, “phenotypic severity score” read 0 (adult worms; 10 µM, 24 h; direction not given).
`O=C(C1CCCCC1)N1CC(=O)N2CCc3ccccc3C2C1` (stereo not drawn) — result for “female worms recovered”: 5 worms per mouse and 8 worms per mouse and 11 worms per mouse and 7 worms per mouse (mice; 100 mg/kg daily x4, dosed day 7, perfused 49).
`CN1CCN(c2ncc(-c3ccc4nncc(Nc5cnccn5)c4c3)cn2)CC1` — result for “phenotypic severity score”: 0 (adult worms; 10 µM, 24 h; direction not given).
For `N#Cc1cc(F)c(-c2c(Cl)nc(-c3cccs3)nc2NCC2CCC2)c(F)c1`, the EC50 was 280 nM (motility; adult worms, ex vivo; 24 h).
`CC1=C(Cc2cn(CCOS(=O)(=O)c3ccc(C)cc3)nn2)C(=O)c2ccccc2C1=O` has a killing of 35.6% (adult worms; 10 µM, 48 h).
`CN1CCN(S(=O)(=O)c2ccc(-c3ccc4nncc(Nc5cnccn5)c4c3)cc2)CC1` — result for “phenotypic severity score”: 0 (adult worms; 10 µM, 48 h; direction not given).
The killing of `CC1=C(Cn2cc(CN)nn2)C(=O)c2ccccc2C1=O` is reported as 50% (adult worms; 25 µM, 48 h).
`CC1(C)NC(=O)N(c2ccc(F)c(C(F)(F)F)c2F)C1=O`: “worm burden reduction” 65% (adult, infected mice; oral, 50 mg/kg single dose).
`CC(C)[C@@H](C)Nc1nc(-c2cccs2)nc(Cl)c1-c1ccc(F)cc1` gave an EC50 of 5000 nM (worm motility; adult worms ex vivo; 24 h).
Under “worm burden reduction”, `CC1(C(F)F)NC(=O)N(c2ccc(F)c(C(F)(F)F)c2)C1=O` (stereo not drawn) is recorded as 62 to 100% and 62% (juvenile, infected mice; oral, 100 mg/kg single dose).
For `CC1(CNc2nc(-c3cccs3)nc(Cl)c2-c2c(F)cc(N)cc2F)COC1`, the EC50 was 37 nM (motility; adult worms, ex vivo; 24 h).
With `O=C1Nc2ccccc2C2(O)CCN3C12c1ccccc1S3(=O)=O` (stereo not drawn) the IC50 was 3300 nM (adult worms; ex vivo).

A few entries again:
For `CC1=C(Cn2cncn2)C(=O)c2ccccc2C1=O`, the killing was 54.6% (adult worms; 25 µM, 72 h).
`CC1(C)NC(=O)N(c2ccc(F)c(S(C)(=O)=O)c2)C1=O`: “worm burden reduction” 0% (NMRI mice, infected; oral, 100 mg/kg single dose, 21 days post-treatment, treated day 49 post-infection).
Under “phenotypic severity score”, `COc1ccc(Nc2cnnc3ccc(-c4cnc(N5CCCN(C)CC5)nc4)cc23)cc1` is recorded as 0 (adult worms; 10 µM, 1 h; direction not given).
Under “worm burden reduction”, `O=C(C1CCCCC1)N1CC(=O)N2CCc3ccccc3C2C1` (racemic) is recorded as 68% (infected mice; intraperitoneal, 50 mg/kg 1 times daily for 3 days, 72 h).
`CC1=C(Cc2cn(CC#N)nn2)C(=O)c2ccccc2C1=O` gave a killing of 45.4% (adult worms; 10 µM, 72 h).
